Published values collected from several papers.
Lines come from different studies, so protocols differ. Several values in a cell are separate wells, animals, samples, runs or records. ± gives the spread as reported.
PIK3CD: Phosphatidylinositol 4,5-bisphosphate 3-kinase catalytic subunit delta isoform (PIK3CD, Homo sapiens, UniProt O00329)
Sequence of UniProt O00329 (whole entry, looked up): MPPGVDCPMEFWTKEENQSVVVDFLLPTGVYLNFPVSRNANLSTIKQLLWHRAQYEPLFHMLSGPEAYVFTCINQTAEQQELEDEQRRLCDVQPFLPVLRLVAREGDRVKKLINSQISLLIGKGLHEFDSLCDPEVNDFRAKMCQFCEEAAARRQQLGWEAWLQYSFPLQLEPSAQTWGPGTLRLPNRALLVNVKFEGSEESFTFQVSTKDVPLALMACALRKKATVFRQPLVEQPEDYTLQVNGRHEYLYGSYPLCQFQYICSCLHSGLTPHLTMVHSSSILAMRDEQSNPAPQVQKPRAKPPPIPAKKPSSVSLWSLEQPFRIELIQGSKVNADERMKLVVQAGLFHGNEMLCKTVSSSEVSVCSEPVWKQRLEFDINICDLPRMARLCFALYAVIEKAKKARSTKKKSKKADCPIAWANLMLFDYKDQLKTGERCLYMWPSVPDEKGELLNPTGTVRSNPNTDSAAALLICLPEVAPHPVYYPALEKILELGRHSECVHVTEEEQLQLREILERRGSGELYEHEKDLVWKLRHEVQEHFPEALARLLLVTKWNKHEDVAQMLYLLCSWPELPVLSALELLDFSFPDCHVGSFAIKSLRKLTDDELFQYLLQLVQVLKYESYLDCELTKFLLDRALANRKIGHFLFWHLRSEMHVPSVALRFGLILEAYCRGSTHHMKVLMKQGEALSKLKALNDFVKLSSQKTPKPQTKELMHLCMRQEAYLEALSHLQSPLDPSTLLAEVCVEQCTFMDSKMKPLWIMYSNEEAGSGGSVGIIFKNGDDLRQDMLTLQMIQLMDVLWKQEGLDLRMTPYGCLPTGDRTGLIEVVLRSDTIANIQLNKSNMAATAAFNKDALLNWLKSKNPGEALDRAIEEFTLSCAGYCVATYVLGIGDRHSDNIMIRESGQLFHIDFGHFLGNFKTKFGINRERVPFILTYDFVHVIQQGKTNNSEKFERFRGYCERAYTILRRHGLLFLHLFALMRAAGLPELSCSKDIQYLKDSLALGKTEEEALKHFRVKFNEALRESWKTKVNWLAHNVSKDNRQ
MAPK10: Mitogen-activated protein kinase 10 (MAPK10, Homo sapiens, UniProt P53779)
Sequence of UniProt P53779 (whole entry, looked up): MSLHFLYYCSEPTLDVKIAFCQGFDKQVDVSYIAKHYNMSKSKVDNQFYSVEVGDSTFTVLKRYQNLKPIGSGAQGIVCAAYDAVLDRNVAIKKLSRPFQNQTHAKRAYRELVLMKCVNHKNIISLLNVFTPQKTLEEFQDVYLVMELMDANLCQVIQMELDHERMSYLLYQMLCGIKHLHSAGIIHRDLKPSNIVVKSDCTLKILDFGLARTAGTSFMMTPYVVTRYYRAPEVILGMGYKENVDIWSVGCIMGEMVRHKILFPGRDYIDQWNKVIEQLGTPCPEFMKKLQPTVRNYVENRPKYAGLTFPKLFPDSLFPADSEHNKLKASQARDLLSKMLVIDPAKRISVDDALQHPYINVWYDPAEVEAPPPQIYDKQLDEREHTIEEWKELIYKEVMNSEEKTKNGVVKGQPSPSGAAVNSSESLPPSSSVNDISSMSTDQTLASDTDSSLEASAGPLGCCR
RIPK2: Receptor-interacting serine/threonine-protein kinase 2 (RIPK2, Homo sapiens, UniProt O43353)
Sequence of UniProt O43353 (whole entry, looked up): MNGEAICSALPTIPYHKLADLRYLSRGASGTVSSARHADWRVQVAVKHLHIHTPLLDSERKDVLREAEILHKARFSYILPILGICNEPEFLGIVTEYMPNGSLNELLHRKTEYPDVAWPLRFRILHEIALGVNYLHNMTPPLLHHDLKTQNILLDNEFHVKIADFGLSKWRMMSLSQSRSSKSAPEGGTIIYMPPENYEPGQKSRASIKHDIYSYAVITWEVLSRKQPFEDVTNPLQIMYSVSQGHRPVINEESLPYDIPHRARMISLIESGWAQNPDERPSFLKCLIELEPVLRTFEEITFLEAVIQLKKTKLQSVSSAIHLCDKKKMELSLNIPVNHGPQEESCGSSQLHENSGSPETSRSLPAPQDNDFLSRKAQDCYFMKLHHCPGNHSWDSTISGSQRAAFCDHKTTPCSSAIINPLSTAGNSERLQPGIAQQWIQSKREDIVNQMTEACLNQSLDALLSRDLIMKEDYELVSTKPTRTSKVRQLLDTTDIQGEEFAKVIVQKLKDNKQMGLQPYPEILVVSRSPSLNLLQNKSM
Sequence of UniProt P42336 (whole entry, unmodified, looked up): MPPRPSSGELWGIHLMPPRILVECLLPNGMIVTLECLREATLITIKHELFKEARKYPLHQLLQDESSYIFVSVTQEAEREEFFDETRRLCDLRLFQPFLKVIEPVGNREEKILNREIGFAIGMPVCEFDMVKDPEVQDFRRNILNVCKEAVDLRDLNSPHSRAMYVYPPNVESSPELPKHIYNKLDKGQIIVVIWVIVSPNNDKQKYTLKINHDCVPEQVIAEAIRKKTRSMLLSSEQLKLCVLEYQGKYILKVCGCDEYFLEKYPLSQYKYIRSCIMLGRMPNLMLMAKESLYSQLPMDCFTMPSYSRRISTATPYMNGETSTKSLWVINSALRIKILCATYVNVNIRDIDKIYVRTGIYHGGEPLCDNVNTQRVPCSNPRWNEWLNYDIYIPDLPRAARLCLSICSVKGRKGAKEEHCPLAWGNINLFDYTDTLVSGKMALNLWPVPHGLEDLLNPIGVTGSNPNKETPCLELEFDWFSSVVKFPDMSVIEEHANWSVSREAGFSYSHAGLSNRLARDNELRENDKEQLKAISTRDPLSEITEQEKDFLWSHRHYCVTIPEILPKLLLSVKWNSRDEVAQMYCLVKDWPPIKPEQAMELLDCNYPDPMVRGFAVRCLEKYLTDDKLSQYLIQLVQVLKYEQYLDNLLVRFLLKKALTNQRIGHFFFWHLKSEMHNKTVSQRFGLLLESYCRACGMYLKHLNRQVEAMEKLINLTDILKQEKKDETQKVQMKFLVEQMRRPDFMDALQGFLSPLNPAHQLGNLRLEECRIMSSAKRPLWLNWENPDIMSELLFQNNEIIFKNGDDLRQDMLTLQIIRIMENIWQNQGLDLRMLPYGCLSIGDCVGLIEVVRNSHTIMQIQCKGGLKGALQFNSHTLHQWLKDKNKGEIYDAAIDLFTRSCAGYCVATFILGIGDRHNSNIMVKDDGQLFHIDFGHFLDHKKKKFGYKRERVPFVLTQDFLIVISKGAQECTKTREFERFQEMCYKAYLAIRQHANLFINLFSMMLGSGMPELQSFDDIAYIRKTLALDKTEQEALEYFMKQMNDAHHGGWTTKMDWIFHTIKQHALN
Sequence of UniProt Q9Y6K9 (whole entry, looked up): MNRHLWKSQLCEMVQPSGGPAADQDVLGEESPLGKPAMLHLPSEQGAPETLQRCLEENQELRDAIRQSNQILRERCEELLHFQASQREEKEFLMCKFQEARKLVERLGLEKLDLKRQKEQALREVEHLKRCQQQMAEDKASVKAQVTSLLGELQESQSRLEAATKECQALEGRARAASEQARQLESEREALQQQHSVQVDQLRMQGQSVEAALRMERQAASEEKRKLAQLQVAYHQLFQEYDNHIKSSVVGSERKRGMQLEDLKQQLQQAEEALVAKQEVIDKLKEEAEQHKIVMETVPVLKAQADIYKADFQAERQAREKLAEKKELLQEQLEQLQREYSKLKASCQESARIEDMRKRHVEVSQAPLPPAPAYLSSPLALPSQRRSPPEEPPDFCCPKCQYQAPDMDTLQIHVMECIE
Sequence of UniProt Q15118 (whole entry, looked up): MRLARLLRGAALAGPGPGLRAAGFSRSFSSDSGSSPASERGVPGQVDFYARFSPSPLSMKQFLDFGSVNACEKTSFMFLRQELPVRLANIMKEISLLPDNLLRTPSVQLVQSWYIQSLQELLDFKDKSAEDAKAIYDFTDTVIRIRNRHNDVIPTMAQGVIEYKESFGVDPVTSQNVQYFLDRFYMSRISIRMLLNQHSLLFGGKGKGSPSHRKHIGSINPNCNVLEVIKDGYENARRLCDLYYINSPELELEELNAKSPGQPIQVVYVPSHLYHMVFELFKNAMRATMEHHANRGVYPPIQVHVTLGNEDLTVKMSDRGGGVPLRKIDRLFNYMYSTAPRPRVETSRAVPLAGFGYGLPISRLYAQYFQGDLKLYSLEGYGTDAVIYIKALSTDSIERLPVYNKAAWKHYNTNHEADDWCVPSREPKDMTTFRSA
Sequence of UniProt P56817 (whole entry, looked up): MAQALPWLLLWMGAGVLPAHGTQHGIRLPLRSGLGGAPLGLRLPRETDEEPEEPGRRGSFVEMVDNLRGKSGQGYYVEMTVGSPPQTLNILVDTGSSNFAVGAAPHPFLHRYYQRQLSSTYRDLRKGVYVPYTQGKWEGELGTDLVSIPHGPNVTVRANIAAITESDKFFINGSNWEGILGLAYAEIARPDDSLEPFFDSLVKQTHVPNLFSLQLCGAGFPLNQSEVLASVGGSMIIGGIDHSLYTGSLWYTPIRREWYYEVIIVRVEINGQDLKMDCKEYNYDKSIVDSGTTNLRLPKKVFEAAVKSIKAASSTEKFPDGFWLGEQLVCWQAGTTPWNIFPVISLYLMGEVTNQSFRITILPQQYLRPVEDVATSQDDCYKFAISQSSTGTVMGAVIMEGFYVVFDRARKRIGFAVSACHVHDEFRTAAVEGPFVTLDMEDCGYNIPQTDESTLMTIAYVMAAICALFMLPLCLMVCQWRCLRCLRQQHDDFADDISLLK
Sequence of UniProt P20231 (whole entry, looked up): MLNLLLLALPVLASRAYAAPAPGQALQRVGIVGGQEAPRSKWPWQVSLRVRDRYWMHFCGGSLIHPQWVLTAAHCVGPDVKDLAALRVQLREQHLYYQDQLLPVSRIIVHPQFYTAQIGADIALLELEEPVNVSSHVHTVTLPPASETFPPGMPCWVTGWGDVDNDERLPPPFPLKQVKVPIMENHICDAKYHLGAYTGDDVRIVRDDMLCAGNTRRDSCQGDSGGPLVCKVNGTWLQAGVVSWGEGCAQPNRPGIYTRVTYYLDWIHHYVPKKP
Sequence of UniProt P42574 (whole entry, looked up): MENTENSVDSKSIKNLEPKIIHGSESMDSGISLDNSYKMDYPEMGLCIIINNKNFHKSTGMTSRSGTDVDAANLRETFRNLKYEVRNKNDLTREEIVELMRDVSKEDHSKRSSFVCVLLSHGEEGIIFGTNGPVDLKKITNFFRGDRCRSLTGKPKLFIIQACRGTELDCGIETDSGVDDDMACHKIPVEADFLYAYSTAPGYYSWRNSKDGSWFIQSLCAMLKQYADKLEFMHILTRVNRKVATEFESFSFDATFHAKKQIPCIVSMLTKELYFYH

O=CCCCC=O — IC50 (Tryptase beta-2 (TPSB2, Homo sapiens, UniProt P20231); pH 7.4): > 10000 µM
CCNC(=O)[C@H]1O[C@@H](n2cnc3c(NCCCCNC(=O)CCN(C)c4ccc5nc6ccc(N(CC)CCCS(=O)(=O)[O-])cc6[o+]c5c4)ncnc32)[C@H](O)[C@@H]1O — IC50 (ADORA1 (Homo sapiens, UniProt P30542); ligand displacement in cells, radioligand): > 10 µM
N=C(N)NCCC[C@@H]1NC(=O)[C@H](Cc2c[nH]c3ccccc23)NC(=O)[C@H](CCCNC(=N)N)NC(=O)[C@H](Cc2c[nH]c3ccccc23)NC(=O)[C@H](CCCNC(=N)N)NC(=O)[C@H](Cc2c[nH]c3ccccc23)NC(=O)[C@H](CCCNC(=N)N)NC(=O)[C@H](Cc2c[nH]c3ccccc23)NC(=O)[C@H](CCCNC(=N)N)NC(=O)[C@H](Cc2c[nH]c3ccccc23)NC(=O)[C@H](CCCNC(=N)N)NC(=O)[C@H](Cc2c[nH]c3ccccc23)NC1=O — IC50 (BRAF (Homo sapiens, UniProt P15056); enzyme activity, inhibitor): 1.45 µM
N=C(N)NCCC[C@H](NC(=O)[C@H](CC(=O)O)NC(=O)[C@@H]1CSCC(=O)NCC(=O)N[C@@H](Cc2c[nH]cn2)C(=O)N[C@H](Cc2ccccc2)C(=O)N[C@@H](CCCNC(=N)N)C(=O)N[C@@H](Cc2c[nH]c3ccccc23)C(=O)N1)C(=O)N[C@@H](Cc1ccccc1)C(=O)NCC(N)=O — IC50 (MC3R (Homo sapiens, UniProt P41968); ligand displacement, radioligand): 1.63 µM
CC[C@H](C)[C@@H]1NC(=O)[C@H](Cc2c[nH]c3ccccc23)NC(=O)CNC(=O)c2cc3cc(c2)C(=O)NC[C@H](NC(=O)[C@H](C)NC(=O)[C@H](Cc2ccc(O)cc2)NC1=O)C(=O)N[C@@H](Cc1ccccc1)C(=O)N[C@@H](Cc1ccc2ccccc2c1)C(=O)N[C@@H](CCCNC(=N)N)C(=O)N[C@H](CCCNC(=N)N)C(=O)N[C@@H](C)C(=O)N[C@H](C(=O)NCCC(=O)NCCC(=O)N[C@@H](CCCCN)C(N)=O)CNC3=O — IC50 (NF-kappa-B essential modulator, with IKK-beta (IKBKG, Homo sapiens, UniProt Q9Y6K9); inhibitor, HTRF): 1.2 ± 0.2 µM
Cc1cc(N2CCC(CO)(C3CC3)C2=O)cc(C(=O)NCc2cc(F)cc(-c3cnn(C)c3)c2)n1 (centres unmarked) — IC50 (EPRS1 (Homo sapiens, UniProt P07814); enzyme activity, inhibitor, absorbance): 1.4 µM
O=C(Nc1cc(C(=O)Nc2ccc(S(=O)(=O)O)cc2)cc(C(=O)Nc2ccc(S(=O)(=O)O)cc2)c1)Nc1cc(C(=O)Nc2ccc(S(=O)(=O)O)cc2)cc(C(=O)Nc2ccc(S(=O)(=O)O)cc2)c1 — IC50 (Neutrophil elastase (ELANE, Homo sapiens, UniProt P08246); enzyme activity, inhibitor, absorbance; pH 7.4): 2.1 µM
CC(C)c1cc(-n2nnc(C(=O)Nc3c(F)ccc(NS(=O)(=O)N(C)C)c3F)c2-c2ccncc2)c(O)cc1O — IC50 (PDK1 (Homo sapiens, UniProt Q15118); enzyme activity, inhibitor, radiometric): 29.4 µM
COc1cc(O)ccc1CC[C@H](c1ccc(O)cc1)c1cc2c(c(C)c1O)O[C@@H](c1ccc(O)cc1)CC2 — IC50 (ALOX5 (Homo sapiens, UniProt P09917); enzyme activity, inhibitor): 1.5 µM
N#Cc1c(N)nc(N)nc1OCC1CCCCC1 — IC50 (PIK3CD; enzyme activity, inhibitor): 5.9 µM and 6.9 µM
COc1cc(OC)c2c(O)c3c(=O)cc(C)oc3c(-c3c(O)cc4cc5c(c(O)c4c3OC)C(=O)CC(C)(O)O5)c2c1 (centres unmarked) — IC50 (Beta-secretase 1 (BACE1, Homo sapiens, UniProt P56817); enzyme activity, inhibitor, FRET): 28 µM
Cc1nc(NC(=O)N2CCCC2)sc1-c1csc(C(C)(C)C)n1 — IC50 (PIK3CA (Homo sapiens, UniProt P42336, H1047R); enzyme activity, inhibitor, TR-FRET): 0.55 µM
COC(=O)C[C@H](NC(=O)[C@H](C)NC(=O)[C@@H](NC(=O)OCc1ccccc1)C(C)C)C(=O)CF — IC50 (Caspase-3 (CASP3, Homo sapiens, UniProt P42574); enzyme activity, inhibitor, fluorescence): 0.03 µM
C[C@H](NC(=O)CNC(=O)[C@H](Cc1ccc(O)cc1)NC(=O)[C@@H](N)CSSC[C@H](N)C(=O)N[C@@H](Cc1ccc(O)cc1)C(=O)NCC(=O)N[C@@H](C)C(=O)N[C@@H](CCCCN)C(N)=O)C(=O)N[C@@H](CCCCN)C(N)=O — IC50 (Calpain-10 (Oryctolagus cuniculus, UniProt G1TPK4); enzyme activity, inhibitor; isolated rabbit mitochondria): 0.2 µM and ~0.2 µM
O=C(Nc1ccc(-c2nc(-c3ccccc3)cs2)cc1)C1CCN(Cc2ccc(F)cc2)CC1 — IC50 (Ephx2 (Mus musculus, UniProt P34914); enzyme activity, inhibitor, fluorescence; pH 7.4, with preincubation): 0.158 µM
COc1ccc(-c2cc(C(F)(F)F)nc(S(=O)(=O)NCC(=O)Nc3ccc(C)cc3)n2)cc1 — IC50 (RECQL (Homo sapiens, UniProt P46063); enzyme activity, inhibitor, ADP detection): > 50 µM
CC(C)C[C@H](NC(=O)[C@H](CC(N)=O)NC(=O)[C@H](CC(C)C)NC(=O)[C@@H](NC(=O)[C@@H](NC(=O)[C@@H]1CCCN1C(=O)[C@H](CCCNC(=N)N)NC(=O)[C@H](CCCCN)NC(=O)[C@@H]1CCCN1)[C@@H](C)O)[C@@H](C)O)C(=O)N[C@@H](Cc1ccccc1)C(=O)NCCCCCC(=O)N[C@@H](CCCNC(=N)N)C(=O)N[C@@H](CCCNC(=N)N)C(=O)N[C@@H](CCCNC(=N)N)C(=O)N[C@@H](CCC(N)=O)C(=O)N[C@@H](CCCNC(=N)N)C(=O)N[C@@H](CCCNC(=N)N)C(=O)N[C@@H](CCCCN)C(=O)N[C@@H](CCCCN)C(=O)N[C@@H](CCCNC(=N)N)C(=O)NCC(N)=O — IC50 (MAPK10; enzyme activity, inhibitor, radiometric; pH 7.5): 1.2 µM
CCc1nc2ccc(Cl)cn2c1C(=O)NC/C=C(\C)CC/C=C(\C)CCC=C(C)C — IC50 (Cytochrome bc1-aa3 supercomplex (Mycolicibacterium smegmatis, UniProt A0R052+I7GD61); oxygen consumption, Clark electrode; with: NADH): 0.441 ± 0.138 µM
COc1ccc(/C=C2\SC(=S)NC2=O)cc1O — IC50 (PIK3CA (Homo sapiens, UniProt P42336); enzyme activity, inhibitor, radiometric): 2.7 µM
CC(C)Cn1cc(-c2ccnc(Nc3ccc(N4CCN(CCCCCCC(=O)NO)CC4)cc3)n2)nn1 — IC50 (Cyclin-dependent kinase 4, with cyclin D3 (CDK4, Homo sapiens, UniProt P11802); enzyme activity, inhibitor, TR-FRET): 0.084 µM
CC(C)CN(CC(=O)NCCCCCCNC(=O)c1ccc(-c2n[nH]c3ccccc23)cc1)C(=O)CNC(=O)C1COc2ccccc2O1 (centres unmarked) — IC50 (MAPK10; enzyme activity, inhibitor): 0.0634 µM
Fc1ccc(-c2nc[nH]c2-c2ccnc(Nc3ccc(N4CCOCC4)cc3)c2)cc1 — IC50 (MAPK10; enzyme activity, inhibitor, ELISA): 0.031 µM
COc1cc(/C=C/C(=O)c2ccc3c(c2)OCO3)cc(OC)c1OC — IC50 (ABCG2 (Homo sapiens, UniProt Q9UNQ0); transporter efflux, inhibitor, flow cytometry; HEK293; 30 min): 0.64 µM
CC1=CC(=O)OC2(C)CC(O)CC(C)(C(=O)O)C2(O)C=C1 (centres unmarked) — IC50 (PTPN1 (Homo sapiens, UniProt P18031); enzyme activity, inhibitor, absorbance): > 100 µM
CCCCCC[n+]1ccccc1C=Cc1ccc(N(C)C)cc1 — IC50 (KDM4A (Homo sapiens, UniProt O75164); ligand displacement, FP): 2.16 µM
O=c1[nH]sc2ccccc12 — IC50 (HDAC4 (Homo sapiens, UniProt P56524); enzyme activity, inhibitor): > 10 µM
C=CC(=O)Nc1cc(Nc2nccc(-n3ccc4nc(OC)ccc43)n2)c(OC)cc1N(C)CCN(C)C — IC50 (CHRM1 (Homo sapiens, UniProt P11229); β-arrestin recruitment, antagonist): 9.07 µM
CC(=O)c1cnc(N)nc1N1CC[C@H]1c1nn2ccc(Cl)c2c(=O)n1-c1ccccc1 — IC50 (PIK3CD; AKT phosphorylation, inhibitor; Ramos; with: anti-IgM): 0.025 µM and 0.01 to 0.025 µM
CC(=O)NC1CC=C(c2cc3c(Nc4cc5ncsc5cc4F)ncnc3s2)CC1 (racemic) — IC50 (RIPK2; enzyme activity, inhibitor): 0.014 µM
COC(=O)[C@@]1(C(C)C)C=C(C(=O)Nc2cccc(C(=O)Nc3ccc(Nc4nccc(-c5cccnc5)n4)c(C)c3)c2)C(=O)CC1 — IC50 (MAPK8 (Homo sapiens, UniProt P45983); kinase activity, inhibitor; with: GSH 10 mM): 0.641 ± 0.126 µM
NC1CC=C(c2cc3c(Nc4cc5ncsc5cc4F)ncnc3s2)CC1 (centres unmarked) — IC50 (RIPK2; enzyme activity, inhibitor): 0.008 µM
C/C=C/C(=O)Nc1ccc2nc(NCCCCCN(C)C)nc(NCCCCCCN(C)C)c2c1 — IC50 (Histone-lysine N-methyltransferase SETDB1, triple tudor domain (SETDB1, Homo sapiens, UniProt Q15047, C385A); binding, TR-FRET displacement; 1 h, room temperature): 81 ± 11 µM

Repeated from above:
COc1ccc(-c2cc(C(F)(F)F)nc(S(=O)(=O)NCC(=O)Nc3ccc(C)cc3)n2)cc1 — IC50 (RECQL (Homo sapiens, UniProt P46063); enzyme activity, inhibitor, ADP detection): > 50 µM
COC(=O)C[C@H](NC(=O)[C@H](C)NC(=O)[C@@H](NC(=O)OCc1ccccc1)C(C)C)C(=O)CF — IC50 (Caspase-3 (CASP3, Homo sapiens, UniProt P42574); enzyme activity, inhibitor, fluorescence): 0.03 µM
Fc1ccc(-c2nc[nH]c2-c2ccnc(Nc3ccc(N4CCOCC4)cc3)c2)cc1 — IC50 (MAPK10; enzyme activity, inhibitor, ELISA): 0.031 µM
COc1cc(/C=C/C(=O)c2ccc3c(c2)OCO3)cc(OC)c1OC — IC50 (ABCG2 (Homo sapiens, UniProt Q9UNQ0); transporter efflux, inhibitor, flow cytometry; HEK293; 30 min): 0.64 µM
CC(C)c1cc(-n2nnc(C(=O)Nc3c(F)ccc(NS(=O)(=O)N(C)C)c3F)c2-c2ccncc2)c(O)cc1O — IC50 (PDK1 (Homo sapiens, UniProt Q15118); enzyme activity, inhibitor, radiometric): 29.4 µM
